# Results from different studies.
# Parts stem from different laboratories: compare values within a part only. Positions count from the first letter of the parent shown.

# Study 1 — technique: protein binding microarray; form: double-stranded DNA, one strand shown; medium: in vitro; concentration: not given; baseline: not given; reading: higher = stronger binding
# Target: Histone acetyltransferase KAT6A, winged helix 1, GST fusion (KAT6A, Homo sapiens, UniProt Q92794, residues 1-85)
# Setting: 8-mer, flanks averaged, mean of 2 arrays, mostly near background
# Construct (chain): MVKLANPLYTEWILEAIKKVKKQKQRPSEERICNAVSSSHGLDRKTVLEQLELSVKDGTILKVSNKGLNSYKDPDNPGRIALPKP
Oligonucleotide,E-score
AATCGAAA,0.0217
CAGTAAAC,0.0268
CATGAGCC,-0.191
CCATGCTA,-0.103
GCTAATTA,0.0536
CGCACGAA,0.142
AAGTAAGC,-0.106
ACAGTCGA,-0.207
AAACGTTC,-0.015
CGAAAAAC,-0.102
ACTCCATA,-0.193
ATCACATA,-0.11
GCGTCCCC,0.145
CTGACAAG,-0.106
AGAAGACC,-0.086
GCATATGA,0.0675

# Study 2 — target: CCNB1, cyclin fold, Cln2 fusion (human); technique: yeast growth competition, sequencing; medium: yeast; setting: strong parent motif; baseline: not given; reading: higher = stronger binding
# Parent: MICAL3 docking peptide (human); LQLRRQLSFSEDS; partner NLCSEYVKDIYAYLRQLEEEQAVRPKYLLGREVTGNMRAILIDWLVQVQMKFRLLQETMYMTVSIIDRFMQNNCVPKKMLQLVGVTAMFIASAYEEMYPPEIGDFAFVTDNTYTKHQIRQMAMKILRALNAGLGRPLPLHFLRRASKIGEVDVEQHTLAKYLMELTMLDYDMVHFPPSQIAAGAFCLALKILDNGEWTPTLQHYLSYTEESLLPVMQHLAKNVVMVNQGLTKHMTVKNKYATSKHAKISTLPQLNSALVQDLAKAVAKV
Substitution,normalised enrichment score
LQLRRQLSFSKDS [E11K],1.77
LQLRRQLSGSEDS [F9G],-0.0832
LQLRRQGSFSEDS [L7G],-0.0248
LQLRRALSFSEDS [Q6A],4.7
LQLRGQLSFSEDS [R5G],0.313
LQLRRQLSFSPDS [E11P],2.17
LQLRRQLSFTEDS [S10T],4.11
LSLRRQLSFSEDS [Q2S],5.27
LQLTRQLSFSEDS [R4T],2.26
LQLRRQLYFSEDS [S8Y],1.11
LVLRRQLSFSEDS [Q2V],4.54
LQLRRQESFSEDS [L7E],0.457
LQLRTQLSFSEDS [R5T],0.504

# Study 3 — technique: RNA Bind-n-Seq; form: RNA; medium: in vitro; concentration: 365 nM; baseline: no-protein control; reading: higher = stronger binding
# Target: RNA binding protein fox-1 homolog 2, RRM domain, GST-SBP tag (RBFOX2, Homo sapiens, UniProt O43251-10, residues 100-194)
# Setting: natural RNA segment, single round, ends assumed
# All sequences stand within: GGGAGUUCUACAGUCCGACGAUC … UGGAAUUCUCGGGUGCCAA
# Residues (chain): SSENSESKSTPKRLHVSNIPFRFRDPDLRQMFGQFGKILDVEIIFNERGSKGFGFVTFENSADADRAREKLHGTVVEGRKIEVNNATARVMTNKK
Oligonucleotide,RBNS enrichment (R)
AUUAAUAGUUACACAAGAUGUUUUCAUUACAAAAUAUGUACCUAUCUAUUGAUGGACUCUACAUCCUAUAUUGUGACAUGUAAGUCCUUUAAAAGGUGAAAAGUAUGAUU,0.306
UGUUGCAUUAUUUUGAAUAUUGUCUUUUCAUUUUAAUAAAGUUAUAAUACUUAUUUAUGAUACCAUUGUAAUGUUUCUUGCCUAAAGUCUUAUAAAGUGUAUGAAGCAAU,1.52
GGAGCCCUUUCCUUUGAGAAUACAAGCAUGUCUCUGAGGCAUCCUCAGACCUGGAGUGCUCCCCAACCCCCACCUAUCAAAGCUGCUUUCAAGGUCAGGGUCAGCCCCAG,2.99
GGCCUCCUUGGGAACGUGUAGGCCACGGCUCUGCCACCACUAGGUACCUGCUGAGGGCGCUGGCUCUGCAGAUCAGAACAACGGAGGAUAGCUUUGUGCCUGGACCCAGA,1.08
ACGGUGUCCGUGUUGUUGCUUUCCCACCCUGCAGCGCACUGGACUGAAGAGCUUCCCUCUUCCUACUGCAGCAUGAACUGCAAGCUCCCCUCAGCCCAUCUUGCUCCCUC,1.95
CUCUUUCUUACUGCUGGAAGUCACAGAAUUCAUAUUGCUGCCCGGGUUGGUGUGGCCACCUUUCCCUUUGUCCAAGACUCCACAUGGAAGGCAUUUGAGCUCGACCUCCG,0.327
UCUCCCCUGUACAUGUACUGUAGAAAUGUGUGAUGACAAACGGACUAAUAAAGAACAUUUGGUUGGUCAGAUCCACUUUUAACCUCUGGUGCUGUACAGAAGGCAUUAAA,0.572
ACACCAGGGUCUGUCCUGGUCCUCAAGCCACGCACCCGCUAUGCCUGCACUGCAGCCCAGCCCCGGACAGCUCCAGGAUCCGUGCAGUGGCUGCGCCGCCAGGCCCCAAC,0.322
GUGCAGGACUGCCUGGCCGUGGGGCAGAGGGGUUUGCCCUUCUCGGAGGGUACCUCCUGUUCCCUGUCUGAGCAUCCUGCAUGGAAGUCAAAGGAAAUCCCUUUCUUGGU,0.232
AGAGAAGUAUGUGUUUGUUUUUAACAUGAUGCUAGUUAGAGAACAGUCUUAUCAGCAAAUUACUCUGGCCACUCUUGGAGCUAGAUAUUUUCCAAAUUUUCUCUGAAGGU,0.537
UUCCAAAUACAUCCUGUUGGAUACUGAAUAGAUCAUAGAUAUUGUAGACUGAGAUCUGGGACUGUGUUGGGACCAUUCAGGUGAUAUGUCACUUCCACAAAUGGCAUCUC,0.4
AGUUUCAGUGACCCACGUCAGUUACACAUUAAAGCCAGACCCCAUGAUAAAAUUCCACAAAAUGGAAAUAAAACUCAAAUUUCUUUAGCAUUGUGUAAAUAAAUCUGAAU,0.404

# Study 4 — technique: RNA Bind-n-Seq; form: RNA; medium: in vitro; concentration: 200 nM; setting: whole 134-nt RNA, ends assumed; added: 150 mM KCl; baseline: input library; reading: higher = stronger binding
# Target: Ras GTPase-activating protein-binding protein 1, full length (G3BP1, Homo sapiens, UniProt Q13283)
# Sequence of UniProt Q13283 (whole entry, looked up): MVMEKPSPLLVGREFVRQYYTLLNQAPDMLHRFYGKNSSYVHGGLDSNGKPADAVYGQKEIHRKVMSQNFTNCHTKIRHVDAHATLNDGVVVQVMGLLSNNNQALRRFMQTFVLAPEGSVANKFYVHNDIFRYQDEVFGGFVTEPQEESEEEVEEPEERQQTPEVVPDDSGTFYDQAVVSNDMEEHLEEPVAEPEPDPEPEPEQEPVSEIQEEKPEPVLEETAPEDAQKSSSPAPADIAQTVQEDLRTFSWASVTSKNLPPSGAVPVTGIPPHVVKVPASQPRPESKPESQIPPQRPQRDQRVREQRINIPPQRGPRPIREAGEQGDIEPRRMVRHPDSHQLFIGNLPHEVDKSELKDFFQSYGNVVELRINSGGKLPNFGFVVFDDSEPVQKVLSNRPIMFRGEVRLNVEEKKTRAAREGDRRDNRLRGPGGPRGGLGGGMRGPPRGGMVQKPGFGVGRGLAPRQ
# All sequences stand within: GGGAGUUCUACAGUCCGACGAUC … UGGAAUUCUCGGGUGUCAAGG
Oligonucleotide,log2 enrichment
UGGCCCUGGUGGCAUGCGGGGAGAAAGAGGUGGCCUCAUGGAUCGUGGUGGUCCCGGUGGAAUGUUCAGAGGUGGCCGUGGUGGAGACAG,0.283
UGCUGUGCAGCGGCAUCGGCCCACUGUGGUGGAAUGUCUACGGGAAACUGAUGCCUCCCUCAGCCGGUGAGCAGUGAUAGAGGGGACAGG,-2.14
CAAGUCCUGUGCUACACAUCGUAUGUACCGAAUCGGUUUUGGGUUUUGGGUUUUGGAAAGUAUUAUGUUACGCCGUUCGGAUCUGCACUU,-1.22
UGGGAGGUGGAUUUUGUUUAUUUUUUUAGCUCAUUUCCAGGGGUGGGAAUUUUUUUUUAAUAUGUGUCAUCAAUAAAGUUGUUUUUGAAA,0.38
UGGGAGGCGGAUUUUGUUUAUUUUUUUAGCUCAUUUCCAGGGGUGGGAAUUUUUUUUUAAUAUGUGUCAUGAAUAAAGUUGUUUUUGAAA,-0.098
UGGCCCUGGUGGCAUGCGGGGAGGAAGAGGUGGCCUCAUGGAUCGUGGUAGUCCCGGUGGAAUGUUCAGAGGUGGCCGUGGUGGAGACAG,0.463
UCCUCAAGUCCUGUGCUACACAUCGUAUGUACCGAAUCGGUGGAGGUUUGGAAAGUAUUAUGUUACGCCGUUCGGAUCUGCACUUCCAGC,-0.857
GCAGGAAGUAAAAACAAAUGCAAAUGCUUCGGAUAGUGGCAGGGGUGGGGGUUGCUAAGGAAAGGGUGGGAUGGGAGUGGGUAAAGAGUU,0.469
AAGUCCUGUGCUACACAUCGUAUGUACCGAAUCGGGGUUUGGGGAGGGGUUUGGGGAAAGUAUUAUGUUACGCCGUUCGGAUCUGCACUU,0.383
UAACUUUAGAGGAGGAUCUGAUGGAUAUGGCAGUGGACGUGGAUUUGGGGAUGGCUAUAAUGGGUAUGGUGGAGGACCUGGAGGUGGCAA,0.281
ACCAUGCAGGUGGGGAUCUUUGGGAAGUGGGGCAAGGGGGGGAUAGGGAGGGGGGUAACACUUUGGGAACAGGUGGUCCCAGGUCGUUUC,0.79

# Study 5 — technique: universal PBM; form: double-stranded DNA, one strand shown; medium: in vitro; concentration: not given; reading: higher = stronger binding
# Target: Sal-like protein 4, full length isoform B (SALL4, Homo sapiens, UniProt Q9UJQ4-2, residues 1-616)
# Setting: 8-mer, flanks averaged, mean of replicates
# Construct (chain): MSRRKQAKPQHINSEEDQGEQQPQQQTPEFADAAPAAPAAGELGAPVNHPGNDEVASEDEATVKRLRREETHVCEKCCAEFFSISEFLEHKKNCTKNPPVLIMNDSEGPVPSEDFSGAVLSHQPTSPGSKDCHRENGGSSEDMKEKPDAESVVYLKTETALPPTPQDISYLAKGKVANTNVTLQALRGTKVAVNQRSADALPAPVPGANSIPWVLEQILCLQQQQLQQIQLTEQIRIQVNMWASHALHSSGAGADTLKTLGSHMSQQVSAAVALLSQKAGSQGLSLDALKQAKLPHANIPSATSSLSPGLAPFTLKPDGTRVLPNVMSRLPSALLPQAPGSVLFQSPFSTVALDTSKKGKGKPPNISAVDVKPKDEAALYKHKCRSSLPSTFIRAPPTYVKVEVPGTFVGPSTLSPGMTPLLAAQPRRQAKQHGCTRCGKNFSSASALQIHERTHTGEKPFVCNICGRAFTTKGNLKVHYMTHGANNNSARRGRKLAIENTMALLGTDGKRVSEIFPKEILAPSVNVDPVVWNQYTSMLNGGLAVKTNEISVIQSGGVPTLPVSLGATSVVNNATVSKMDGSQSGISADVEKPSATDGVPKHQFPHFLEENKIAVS
Oligonucleotide,E-score
AGACTTGC,-0.0328
CCTAACGA,0.0496
ACAAGGGC,-0.218
CATCTACC,-0.0213
ACCAAGAG,-0.129
AACCAGCG,-0.172
CCACATCA,0.00286
GACCAAAA,0.22
AACTCGCG,-0.219
ATAGGGGG,-0.0168
AATTATTG,0.423
ACACACCG,-0.118
ACGCACAA,0.0957
ATATTTGG,0.356
ATAGCGCG,-0.0338
AAGTAACT,0.142

# Excerpt of the above (study 2):
Substitution,normalised enrichment score
LQLRRQLSGSEDS [F9G],-0.0832
LQLRRQGSFSEDS [L7G],-0.0248
LQLRRALSFSEDS [Q6A],4.7
LQLRGQLSFSEDS [R5G],0.313
LQLRRQLSFSPDS [E11P],2.17
LQLRRQLSFTEDS [S10T],4.11
LSLRRQLSFSEDS [Q2S],5.27
LQLTRQLSFSEDS [R4T],2.26
